{"data": "Measurements of several laboratories", "note": "Every numbered part comes from another study and shows a few of its results, in no order."}
{"data": "Sample 1", "target": "Ras GTPase-activating protein-binding protein 1, full length (G3BP1, Homo sapiens, UniProt Q13283)", "method": "RNA Bind-n-Seq", "form": "RNA", "sample": "in vitro", "concentration": "200 nM", "notes": "whole 134-nt RNA, ends assumed", "together with": "150 mM LiCl", "reference": "input library", "direction": "higher = stronger binding", "all molecules": "7-deaza-guanosine replaces G", "all sequences stand within": "GGGAGUUCUACAGUCCGACGAUC … UGGAAUUCUCGGGUGUCAAGG", "sequence of UniProt Q13283 (whole entry, looked up)": "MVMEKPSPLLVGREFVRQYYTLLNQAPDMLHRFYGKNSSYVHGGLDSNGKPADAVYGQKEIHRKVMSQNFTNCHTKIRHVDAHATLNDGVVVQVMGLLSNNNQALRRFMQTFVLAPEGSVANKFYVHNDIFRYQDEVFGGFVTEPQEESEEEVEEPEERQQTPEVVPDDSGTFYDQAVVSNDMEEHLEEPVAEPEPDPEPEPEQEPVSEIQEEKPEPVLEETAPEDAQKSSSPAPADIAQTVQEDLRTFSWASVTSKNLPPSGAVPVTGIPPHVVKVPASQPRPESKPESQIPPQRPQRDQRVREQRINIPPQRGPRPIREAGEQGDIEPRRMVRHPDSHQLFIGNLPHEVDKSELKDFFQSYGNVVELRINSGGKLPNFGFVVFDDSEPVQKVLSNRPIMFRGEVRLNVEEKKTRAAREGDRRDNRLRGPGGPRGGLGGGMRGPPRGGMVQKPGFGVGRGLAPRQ"}
{"Sequence": "UAUGGACAAGCAUAAUGGAACAGACAGGUUUGUGAACCAGCAGUUUCAAGAGGAAAAGUUAAAUAAAUUGCAGAAGUUACUUAUUCUUUU", "log2 enrichment": -2.85}
{"Sequence": "UGUGCUACACAUCGUAUGUACCGAAUCGGGCCCCCCCGGGGCCCCCCCGGGCCCCCCCGGGGAAAGUAUUAUGUUACGCCGUUCGGAUCU", "log2 enrichment": -0.9}
{"Sequence": "UGGCCCUGGUGGCAUGCGGGGAGGAAGAGGUGGCCUCAUGGAUCGUGGUGGUCCCCGUGGAAUGUUCAGAGGUGGCCGUGGUGGAGACAG", "log2 enrichment": 0.709}
{"Sequence": "UCUCAGCACCCUCGUGAAACUGGACAAGAAGCCAGUGGAGACCAACGGUCCUGAUGCCAAUCACGAGUACAGUACAAGCAGCCAGCAUAU", "log2 enrichment": -0.237}
{"Sequence": "CUCAAGUCCUGUGCUACACAUCGUAUGUACCGAAUCGGAAAGGAGGAAAAAGGAAAGUAUUAUGUUACGCCGUUCGGAUCUGCACUUCCA", "log2 enrichment": -0.432}
{"Sequence": "CAAGUCCUGUGCUACACAUCGUAUGUACCGAAUCGGGGCCCGGCCCGGGGCCCGGAAAGUAUUAUGUUACGCCGUUCGGAUCUGCACUUC", "log2 enrichment": -0.717}
{"data": "Sample 2", "target": "Histone acetyltransferase KAT6A, winged helix 1, GST fusion (KAT6A, Homo sapiens, UniProt Q92794, residues 1-85)", "method": "protein binding microarray", "form": "double-stranded DNA, one strand shown", "sample": "in vitro", "concentration": "not given", "notes": "8-mer, flanks averaged, mean of 2 arrays, mostly near background", "reference": "not given", "direction": "higher = stronger binding", "Construct (chain)": "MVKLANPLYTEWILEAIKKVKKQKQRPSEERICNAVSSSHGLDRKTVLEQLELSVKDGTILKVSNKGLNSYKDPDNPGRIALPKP"}
{"Sequence": "GGACCGGA", "E-score": 0.126}
{"Sequence": "AGTGTATC", "E-score": -0.226}
{"Sequence": "CGTGCGGA", "E-score": 0.272}
{"Sequence": "TAACGATA", "E-score": -0.131}
{"Sequence": "GAACAATA", "E-score": 0.0404}
{"data": "Sample 3", "target": "Centromere-binding protein 1, full length, N-terminal tag (CBF1, Saccharomyces cerevisiae, UniProt P17106, residues 1-351)", "method": "protein-binding microarray", "form": "double-stranded DNA, one strand shown", "sample": "in vitro", "concentration": "0.8 µM", "notes": "whole 60-bp probe, no competitor", "direction": "higher = stronger binding", "all sequences stand within": "… GTCTTGATTCGCTTGACGCTGCTG", "sequence of UniProt P17106 (whole entry, looked up)": "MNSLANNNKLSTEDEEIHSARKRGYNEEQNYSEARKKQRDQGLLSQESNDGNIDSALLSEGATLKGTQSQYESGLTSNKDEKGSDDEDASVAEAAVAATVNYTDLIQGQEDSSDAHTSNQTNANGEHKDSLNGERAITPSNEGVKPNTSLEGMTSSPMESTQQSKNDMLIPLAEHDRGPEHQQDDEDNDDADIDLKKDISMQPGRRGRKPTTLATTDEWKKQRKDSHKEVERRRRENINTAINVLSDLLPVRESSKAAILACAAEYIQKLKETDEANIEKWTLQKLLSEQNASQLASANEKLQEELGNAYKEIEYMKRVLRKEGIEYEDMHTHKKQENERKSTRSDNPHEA"}
{"Sequence": "CCTAACTACTATAACTACGTGCCATAGCTTCGTACA", "fluorescence intensity [a.u.]": 654}
{"Sequence": "CCTAACTACTATAAATACGGGTCATAGCTTCGTACA", "fluorescence intensity [a.u.]": 523}
{"Sequence": "GAACTAAGATATTCCCACATGGACAAGTGCCACTAG", "fluorescence intensity [a.u.]": 554}
{"Sequence": "GAAGAAAAACAACTAGGGGTGATGCTGTTTTGCTAG", "fluorescence intensity [a.u.]": 531}
{"Sequence": "GAAACAAACCGCCGTCACGATGAGGCAGGTGTCTAG", "fluorescence intensity [a.u.]": 606}
{"data": "Further values, each from its own experiment"}
{"Substance": "PhoQ, residues 284 288 289 292 302 303 GTAMQF", "target": "PhoP, residues 12 14 15 18 19 SEGLL (Escherichia coli, UniProt P23836)", "test": "Sort-seq, measured: YFP reporter", "test system": "E. coli", "conditions": "PhoQ-PhoP variant library, together with: 10 µM Mg2+", "scale": "reference: high Mg2+ state, higher = stronger signaling", "quantity": "fold induction", "value": 8.84}
